Results of several laboratories.
Protocols differ between the studies behind these lines. “And” joins repeats or separate records; there may be more than shown. ± marks the error that the study gave.
Luciferin 4-monooxygenase: Luciferin 4-monooxygenase (Photinus pyralis, UniProt P08659)

`CN(C)CCCN1c2ccccc2Sc2ccc(C(F)(F)F)cc21` has an inhibition of 15.2% (Luciferin 4-monooxygenase; luciferase luminescence, inhibitor; cell-free; 50 µM, counter-screen).
`Cn1cncc1[C@@](N)(c1ccc(Cl)cc1)c1ccc2c(c1)c(-c1cccc(Cl)c1)cc(=O)n2C` has an inhibition of 50 to 92% (Protein farnesyltransferase (Homo sapiens, UniProt P49354+P49356); enzyme activity, inhibitor, scintillation proximity; leukaemia patients, leukaemic blasts; 300 mg/m^2, 10 days, range; relative to: pretreatment).
The inhibition of `CCCN(O)N=Nc1ccc(S(=O)(=O)Nc2nccs2)cc1` is reported as 47.5 ± 0.041% (α-glucosidase, rat intestine; enzyme activity; 240 µg/mL, with: 4-nitrophenyl α-D-glucopyranoside).
For `Cc1ccc(C(=O)Nc2ccc3ccccc3c2)o1`, the inhibition was 2.74% and 0.82% and 0.2% and 2.8% and 1.36% (ATP-sensitive inward rectifier potassium channel 10 (Homo sapiens, UniProt P78508); ion current, inhibitor, whole-cell patch clamp; 10 µM).
With `O=C(NO)c1ccc(CN2CCCCc3ccccc32)c(F)c1` the inhibition was 14.2% (OPRD1 (Homo sapiens, UniProt P41143); radioligand binding, radioligand displacement; 10 µM, mean of replicates).
For `CN(C)[C@@H]1C(O)=C(C(N)=O)C(=O)[C@@]2(O)C(O)=C3C(=O)c4c(O)cccc4[C@@](C)(O)[C@H]3C[C@@H]12`, the inhibition was 61.7% (Palmitoyl-protein thioesterase 1 (Homo sapiens, UniProt P50897); Spectrum Collection screen; concentration not given, with: substrate 20 µM).
`CCCN(O)N=Nc1ccc(S(=O)(=O)Nc2cc(C)on2)cc1` gave an inhibition of 62.5 ± 0.5% (α-glucosidase, rat intestine; enzyme activity; 300 µg/mL, with: 4-nitrophenyl α-D-glucopyranoside).
For `c1ccc(Cn2ncc3[nH]c(-c4ccc(-n5ccnc5)cc4)nc32)cc1`, the inhibition was 7.2% (Luciferin 4-monooxygenase; luciferase luminescence, inhibitor; cell-free; 50 µM, counter-screen).
For `CC(C)C(O)C(=O)O` (stereo not shown), the inhibition was 1.69% (THP-1; pyroptotic LDH release; 2 µM, 40 min, with: LPS then nigericin).
`COc1cc2c3c(c1OC)-c1cc4c(cc1CC3N(C)CC2c1ccccc1)OCO4` (stereo not shown) has an inhibition of under 50% (NMDA; binding, radioligand binding; concentration not given).
`CCN1CCCC1CNC(=O)CCC1CCN(C(=O)CSc2ncccn2)CC1` (stereo not shown) has an inhibition of 5.08% (Luciferin 4-monooxygenase; luciferase luminescence, inhibitor; cell-free; 50 µM, counter-screen).
With `CCN(O)N=Nc1ccc(S(=O)(=O)Nc2onc(C)c2C)cc1` the inhibition was 60 ± 0.013% (α-glucosidase, rat intestine; enzyme activity; 300 µg/mL, with: 4-nitrophenyl α-D-glucopyranoside).
For `CC1(C)S[C@@H]2[C@H](NC(=O)[C@H](N)c3ccccc3)C(=O)N2[C@H]1C(=O)O`, the inhibition was -9.88% (THP-1; pyroptotic LDH release; 2 µM, 40 min, with: LPS then nigericin).
With `CC[C@@H]1[C@H](F)C(=O)N[C@@H]1COc1nccc2cc(C(N)=O)c(OC)cc12` the inhibition was 25.8% (CAMK4 (Homo sapiens, UniProt Q16566); ATP-site probe binding, ActivX profiling; THP-1 cell lysate; 0.01 mM, Lys2 site).
`Cc1ccc(S(=O)(=O)Nc2ccc(F)cc2NS(=O)(=O)c2ccc(C)cc2)cc1`: inhibition “inhibited” (Protein lin-28 homolog A (Mus musculus, UniProt Q8K3Y3); RNA binding, inhibitor, EMSA; concentration not given).
The inhibition of `CC(=O)N[C@@H]1[C@@H](O[C@@H]2O[C@H](CO)[C@H](O)[C@H](O)[C@H]2O)[C@@H](O)[C@@H](CO)O[C@@H]1O` is reported as 15.5 ± 6.7% (Adhesin FmlH, lectin domain (Escherichia coli, UniProt Q1RBS0); binding to desialylated mucin, ELISA competition; UPEC UTI89; 100 µM).
For `CN1CCN(c2cc(-c3ccncc3)c(-c3ccc4ccccc4c3)nn2)CC1`, the inhibition was 3.9% (PTGDR (Homo sapiens, UniProt Q13258); antagonist, FLIPR; 10 µM).
The inhibition of `COc1ccc(F)cc1C(=O)NCc1ccc(-c2nn([C@@H](C)C(F)(F)F)c(N)c2C(N)=O)cc1` is reported as 9.4% (OXSR1 (Homo sapiens, UniProt O95747); target engagement, competitive chemoproteomics; human PBMCs; 0.1 µM).
`Cc1cc(NS(=O)(=O)c2ccc(N=NN(O)c3ccccc3)cc2)no1` gave an inhibition of 20 ± 1.55% (α-glucosidase, rat intestine; enzyme activity; 60 µg/mL, with: 4-nitrophenyl α-D-glucopyranoside).
For `Clc1cccc(OC[C@@H]2CN(CCN3CCc4ccccc43)CCO2)c1`, the inhibition was -16.4% (HTR1E (Homo sapiens, UniProt P28566); radioligand binding; concentration not given, with: [3H]5-HT).
`CCN(O)N=Nc1ccc(S(=O)(=O)Nc2cc(C)on2)cc1` gave an inhibition of 62.5 ± 0.01% (α-glucosidase, rat intestine; enzyme activity; 240 µg/mL, with: 4-nitrophenyl α-D-glucopyranoside).
`O=C1c2ccccc2CCCN1CCCCN1CCN(c2ccccn2)CC1` gave an inhibition of 74.4% (DRD1 (Homo sapiens, UniProt P21728); radioligand binding; concentration not given, with: [3H]SCH23390).

For quick reference, copied from above:
With `CCN(O)N=Nc1ccc(S(=O)(=O)Nc2onc(C)c2C)cc1` the inhibition was 60 ± 0.013% (α-glucosidase, rat intestine; enzyme activity; 300 µg/mL, with: 4-nitrophenyl α-D-glucopyranoside).
For `CC1(C)S[C@@H]2[C@H](NC(=O)[C@H](N)c3ccccc3)C(=O)N2[C@H]1C(=O)O`, the inhibition was -9.88% (THP-1; pyroptotic LDH release; 2 µM, 40 min, with: LPS then nigericin).
With `CC[C@@H]1[C@H](F)C(=O)N[C@@H]1COc1nccc2cc(C(N)=O)c(OC)cc12` the inhibition was 25.8% (CAMK4 (Homo sapiens, UniProt Q16566); ATP-site probe binding, ActivX profiling; THP-1 cell lysate; 0.01 mM, Lys2 site).
